Measured values gathered from unrelated publications.
Protocols differ between the studies behind these lines. Values joined by “and” are separate records of one study, mostly repeats; a detail may differ.
T1: ssDNA, aptamer; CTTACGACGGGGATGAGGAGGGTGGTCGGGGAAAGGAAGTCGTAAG
Chain of UniProt Q16774 (whole entry, unmodified, looked up): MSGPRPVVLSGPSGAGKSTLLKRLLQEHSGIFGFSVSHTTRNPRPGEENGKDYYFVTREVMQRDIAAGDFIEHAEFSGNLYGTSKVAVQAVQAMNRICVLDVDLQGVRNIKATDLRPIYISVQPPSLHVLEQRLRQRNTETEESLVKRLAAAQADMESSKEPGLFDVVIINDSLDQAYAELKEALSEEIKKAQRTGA
Chain of UniProt P45983 (whole entry, looked up): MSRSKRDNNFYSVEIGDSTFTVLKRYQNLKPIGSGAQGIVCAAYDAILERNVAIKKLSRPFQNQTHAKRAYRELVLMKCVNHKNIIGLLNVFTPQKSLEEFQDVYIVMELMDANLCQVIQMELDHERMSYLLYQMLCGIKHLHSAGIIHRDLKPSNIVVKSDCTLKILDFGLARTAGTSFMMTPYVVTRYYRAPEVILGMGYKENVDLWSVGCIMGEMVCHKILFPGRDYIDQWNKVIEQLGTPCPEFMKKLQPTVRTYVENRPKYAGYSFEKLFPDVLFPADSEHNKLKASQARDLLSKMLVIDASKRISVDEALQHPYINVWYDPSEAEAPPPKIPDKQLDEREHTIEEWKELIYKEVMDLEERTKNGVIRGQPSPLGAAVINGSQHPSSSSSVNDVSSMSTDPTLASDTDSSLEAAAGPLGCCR
Chain of UniProt Q16832 (whole entry, looked up): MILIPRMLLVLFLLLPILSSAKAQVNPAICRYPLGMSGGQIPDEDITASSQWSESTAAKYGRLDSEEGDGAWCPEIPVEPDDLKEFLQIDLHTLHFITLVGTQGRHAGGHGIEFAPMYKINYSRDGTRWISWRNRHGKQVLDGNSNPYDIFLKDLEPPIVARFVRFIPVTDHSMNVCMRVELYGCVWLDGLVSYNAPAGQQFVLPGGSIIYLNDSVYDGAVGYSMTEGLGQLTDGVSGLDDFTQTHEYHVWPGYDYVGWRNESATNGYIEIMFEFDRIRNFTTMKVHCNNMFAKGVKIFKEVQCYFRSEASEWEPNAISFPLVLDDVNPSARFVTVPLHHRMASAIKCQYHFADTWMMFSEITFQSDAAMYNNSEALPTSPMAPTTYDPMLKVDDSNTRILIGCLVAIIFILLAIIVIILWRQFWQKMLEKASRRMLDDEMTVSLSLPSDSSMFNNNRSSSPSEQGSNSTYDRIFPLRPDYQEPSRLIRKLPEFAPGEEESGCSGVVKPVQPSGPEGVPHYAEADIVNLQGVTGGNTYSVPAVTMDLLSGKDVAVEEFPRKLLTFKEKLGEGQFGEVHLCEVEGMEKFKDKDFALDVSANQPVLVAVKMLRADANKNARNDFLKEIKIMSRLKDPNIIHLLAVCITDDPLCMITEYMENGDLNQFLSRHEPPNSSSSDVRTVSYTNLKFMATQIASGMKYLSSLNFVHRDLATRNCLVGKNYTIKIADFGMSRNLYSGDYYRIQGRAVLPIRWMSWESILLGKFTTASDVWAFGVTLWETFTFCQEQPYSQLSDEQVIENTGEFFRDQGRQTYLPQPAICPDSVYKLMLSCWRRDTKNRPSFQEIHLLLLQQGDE
Chain of UniProt Q92830 (whole entry, unmodified, looked up): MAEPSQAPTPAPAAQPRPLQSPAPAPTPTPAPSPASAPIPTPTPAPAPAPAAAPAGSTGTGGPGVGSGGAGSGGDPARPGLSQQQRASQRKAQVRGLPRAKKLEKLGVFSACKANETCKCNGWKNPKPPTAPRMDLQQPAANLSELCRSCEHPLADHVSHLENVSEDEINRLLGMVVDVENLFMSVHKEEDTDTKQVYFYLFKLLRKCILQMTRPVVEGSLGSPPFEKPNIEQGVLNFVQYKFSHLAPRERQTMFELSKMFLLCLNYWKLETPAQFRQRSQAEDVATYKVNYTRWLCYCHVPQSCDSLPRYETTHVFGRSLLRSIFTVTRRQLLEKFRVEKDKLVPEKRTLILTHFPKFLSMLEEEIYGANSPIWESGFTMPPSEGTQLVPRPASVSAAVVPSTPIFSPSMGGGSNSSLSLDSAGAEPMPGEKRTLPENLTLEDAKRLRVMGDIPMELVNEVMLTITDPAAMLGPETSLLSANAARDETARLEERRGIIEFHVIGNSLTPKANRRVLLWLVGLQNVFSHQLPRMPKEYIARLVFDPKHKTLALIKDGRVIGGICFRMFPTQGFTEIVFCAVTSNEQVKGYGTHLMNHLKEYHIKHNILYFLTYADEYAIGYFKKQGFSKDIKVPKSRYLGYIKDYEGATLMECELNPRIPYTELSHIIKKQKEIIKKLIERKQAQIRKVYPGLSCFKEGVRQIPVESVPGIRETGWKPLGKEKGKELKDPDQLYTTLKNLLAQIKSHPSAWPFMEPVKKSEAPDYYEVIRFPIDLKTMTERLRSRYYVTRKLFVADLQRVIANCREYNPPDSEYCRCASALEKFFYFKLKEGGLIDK
Chain of UniProt P31941 (whole entry, looked up): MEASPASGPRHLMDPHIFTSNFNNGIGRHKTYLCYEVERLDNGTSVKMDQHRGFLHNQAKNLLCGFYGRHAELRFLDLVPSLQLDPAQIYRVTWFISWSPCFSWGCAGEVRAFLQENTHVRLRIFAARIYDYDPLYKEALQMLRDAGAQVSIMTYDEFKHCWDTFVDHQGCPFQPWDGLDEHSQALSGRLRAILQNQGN
Chain of UniProt P22736 (whole entry, looked up): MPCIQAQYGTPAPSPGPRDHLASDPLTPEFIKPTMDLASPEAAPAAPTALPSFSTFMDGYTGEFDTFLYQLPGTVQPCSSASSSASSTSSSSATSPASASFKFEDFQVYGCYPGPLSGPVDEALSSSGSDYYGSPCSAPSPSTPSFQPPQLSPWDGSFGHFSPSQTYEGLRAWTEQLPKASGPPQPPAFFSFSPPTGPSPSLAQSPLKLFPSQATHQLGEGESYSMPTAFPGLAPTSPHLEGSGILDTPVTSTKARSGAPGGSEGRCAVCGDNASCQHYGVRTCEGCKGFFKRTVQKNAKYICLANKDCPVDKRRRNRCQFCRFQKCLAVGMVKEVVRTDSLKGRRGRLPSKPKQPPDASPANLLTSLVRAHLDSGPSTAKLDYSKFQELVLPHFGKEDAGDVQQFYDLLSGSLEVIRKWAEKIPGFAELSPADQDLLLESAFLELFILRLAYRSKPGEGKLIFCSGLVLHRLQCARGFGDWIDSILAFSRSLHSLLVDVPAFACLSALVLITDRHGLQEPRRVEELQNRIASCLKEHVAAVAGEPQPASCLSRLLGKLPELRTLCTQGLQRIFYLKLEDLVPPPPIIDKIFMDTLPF
Chain of UniProt O14744 (whole entry, looked up): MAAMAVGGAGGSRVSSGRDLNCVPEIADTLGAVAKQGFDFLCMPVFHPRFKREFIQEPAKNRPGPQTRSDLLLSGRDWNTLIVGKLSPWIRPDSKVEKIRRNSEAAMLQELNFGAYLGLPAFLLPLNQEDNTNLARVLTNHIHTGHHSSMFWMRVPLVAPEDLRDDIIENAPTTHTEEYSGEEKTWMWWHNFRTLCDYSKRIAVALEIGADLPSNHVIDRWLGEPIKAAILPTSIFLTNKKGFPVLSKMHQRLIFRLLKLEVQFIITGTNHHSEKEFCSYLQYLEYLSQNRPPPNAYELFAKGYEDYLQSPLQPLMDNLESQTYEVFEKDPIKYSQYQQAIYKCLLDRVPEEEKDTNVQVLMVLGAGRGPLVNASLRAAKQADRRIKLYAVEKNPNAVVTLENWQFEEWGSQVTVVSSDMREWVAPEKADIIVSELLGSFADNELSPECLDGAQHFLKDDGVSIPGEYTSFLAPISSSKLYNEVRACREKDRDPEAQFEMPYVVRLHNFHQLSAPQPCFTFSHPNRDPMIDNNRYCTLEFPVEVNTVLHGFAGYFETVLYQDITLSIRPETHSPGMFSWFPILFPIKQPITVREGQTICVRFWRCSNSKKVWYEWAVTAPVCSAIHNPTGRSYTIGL
Chain of UniProt Q96NY8 (whole entry, looked up): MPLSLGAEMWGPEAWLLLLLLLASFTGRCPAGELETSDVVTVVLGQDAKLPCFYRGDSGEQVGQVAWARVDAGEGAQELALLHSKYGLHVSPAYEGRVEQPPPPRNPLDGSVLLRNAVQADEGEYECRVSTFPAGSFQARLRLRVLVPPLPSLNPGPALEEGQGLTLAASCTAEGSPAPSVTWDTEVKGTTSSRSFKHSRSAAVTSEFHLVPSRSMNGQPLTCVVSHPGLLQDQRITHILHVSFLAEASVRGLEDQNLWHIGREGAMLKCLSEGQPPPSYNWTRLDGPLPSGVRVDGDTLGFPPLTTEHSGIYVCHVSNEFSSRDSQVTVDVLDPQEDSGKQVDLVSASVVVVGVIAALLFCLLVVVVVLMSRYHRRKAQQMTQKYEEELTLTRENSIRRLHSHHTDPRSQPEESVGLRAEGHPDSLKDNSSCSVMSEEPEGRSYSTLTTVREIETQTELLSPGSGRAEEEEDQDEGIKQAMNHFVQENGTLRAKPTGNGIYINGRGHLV
Chain of UniProt Q07011 (whole entry, looked up): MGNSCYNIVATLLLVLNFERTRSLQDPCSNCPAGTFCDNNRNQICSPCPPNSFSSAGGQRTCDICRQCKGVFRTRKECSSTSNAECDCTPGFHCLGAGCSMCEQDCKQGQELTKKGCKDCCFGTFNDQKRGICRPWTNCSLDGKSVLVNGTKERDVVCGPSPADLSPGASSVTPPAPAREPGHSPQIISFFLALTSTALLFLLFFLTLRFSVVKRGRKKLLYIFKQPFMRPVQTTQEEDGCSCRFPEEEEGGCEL
Chain of UniProt P41595 (whole entry, looked up): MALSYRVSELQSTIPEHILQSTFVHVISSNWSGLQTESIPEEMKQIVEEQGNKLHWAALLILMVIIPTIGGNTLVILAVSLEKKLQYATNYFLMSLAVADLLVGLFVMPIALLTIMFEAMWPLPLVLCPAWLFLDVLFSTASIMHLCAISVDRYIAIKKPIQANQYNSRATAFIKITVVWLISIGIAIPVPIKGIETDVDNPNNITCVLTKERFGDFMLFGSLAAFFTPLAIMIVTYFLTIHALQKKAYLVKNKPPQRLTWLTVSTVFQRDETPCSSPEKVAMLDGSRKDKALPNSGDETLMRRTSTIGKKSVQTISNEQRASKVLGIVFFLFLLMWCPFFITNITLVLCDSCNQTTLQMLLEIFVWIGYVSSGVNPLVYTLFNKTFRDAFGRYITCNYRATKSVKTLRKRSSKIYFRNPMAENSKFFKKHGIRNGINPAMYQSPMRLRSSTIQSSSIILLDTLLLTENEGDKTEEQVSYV

Structure (SMILES) = CNc1ncc2c(/C=C/C(=O)N3CCC(OC)CC3)nn(Cc3cccc(C(F)(F)F)c3)c2n1; target = DDR2 (Homo sapiens, UniProt Q16832); test = kinase activity, inhibitor; setting = 1 µM; scale = baseline: untreated control; measurement = remaining activity; result = 99%
Structure (SMILES) = CCC1(O)CCCN(C(=O)c2ccc(-c3ccc(F)c(NC(=O)CCl)c3)cc2)C1 (stereo not shown); target = DNA dC->dU-editing enzyme APOBEC-3A (Homo sapiens, UniProt P31941); test = covalent modifier, intact protein mass spectrometry, measured: adduct +26691 Da; setting = 500 µM, 1 h, 20-fold molar excess; measurement = protein adduct; result = 7.5%
Structure (SMILES) = C#CCCOC(=O)[C@]1(C)C=C(C(=O)OC(C)(C)C)C(=O)CC1; target = MAPK8 (Homo sapiens, UniProt P45983); test = D-peptide binding, inhibitor, FP peptide displacement; setting = 12.5 µM; scale = lower is stronger displacement; measurement = fraction bound; result = 0.466
Structure (SMILES) = O=C(CN1CCO[C@@H](COc2ccccn2)C1)N1CCc2ccccc21; target = HTR2B (Homo sapiens, UniProt P41595); test = radioligand binding; setting = concentration not given, with: [3H]LSD; measurement = inhibition; result = 27.5%
Structure (SMILES) = Cc1nc(CSc2nc(SCc3ccc(C(C)C)cc3)nc(=O)[nH]2)cs1; target = TOP2A (Homo sapiens, UniProt P11388); test = DNA relaxation; setting = 500 µM; measurement = mean relaxed DNA; result = 0.3%
Structure (SMILES) = CCCC[C@@H]1NC(=O)[C@H](Cc2ccc(O)cc2)NC(=O)[C@@H]2CCCN2C(=O)[C@H](CC(=O)O)NC(=O)[C@H](C)NC(=O)[C@H](Cc2ccccc2)NC(=O)[C@@H]2CSCCC(=O)N3CN(CN(C3)C(=O)CCSCCC(=O)N[C@@H](CC(C)(C)C)C(=O)N3CCC[C@H]3C(=O)N[C@@H](CCC(=O)O)C(=O)N[C@H](CCCCNC(=O)CCc3cn(CCOCCOCCOCCOCCOCCC(=O)N[C@H]4CSCCC(=O)N5CN6CN(C5)C(=O)CCSC[C@H](NC(=O)[C@@H](CC(=O)O)NC(=O)[C@H](Cc5cccc7ccccc57)NC(=O)[C@@H]5CCCN5C4=O)C(=O)N[C@@H](CCSC)C(=O)N[C@@H](CCCCNC(=N)N)C(=O)N[C@@H](CC(=O)O)C(=O)N[C@@H](Cc4c[nH]c5ccccc45)C(=O)N[C@@H](CO)C(=O)N[C@@H]([C@@H](C)O)C(=O)N4CCC[C@H]4C(=O)N4C[C@H](O)C[C@H]4C(=O)N[C@@H](Cc4c[nH]c5ccccc45)C(=O)N[C@H](C(N)=O)CSCCC6=O)nn3)C(=O)N3CCC[C@H]3C(=O)N[C@@H](Cc3ccc(O)cc3)C(=O)N2)C(=O)CCSCCNC1=O; target = Tumor necrosis factor receptor superfamily member 9/Nectin-4 (Homo sapiens, UniProt Q07011+Q96NY8); test = reporter gene, agonist; test system = HT-1376 coculture with reporter cells; scale = baseline: background; measurement = Emax; result = 34 fold
Structure (SMILES) = CC(=O)N[C@@H]1[C@@H](O[C@H]2O[C@H](CO)[C@H](O)[C@H](O)[C@H]2O)[C@@H](O)[C@@H](CO)O[C@H]1O; target = Frizzled-8 (Xenopus laevis, UniProt Q91719); test = binding, biolayer interferometry; setting = 25 °C, with: immobilized biotinylated carbohydrate; measurement = association rate constant; result = 3960 M⁻¹ s⁻¹
Structure (SMILES) = O=C(C=Cc1ccccc1)Nc1cccc(-c2ccnc(N3CCC(CO)CC3)c2)c1; target = Nuclear receptor subfamily 4 group A member 1 (NR4A1, Homo sapiens, UniProt P22736); test = SPR; setting = 10.0 µM; measurement = binding response; result = 93.8 RU
Structure (SMILES) = Nc1nc2c(ncn2[C@@H]2O[C@H](COP(=O)(O)O)[C@@H](O)[C@H]2O)c(=O)[nH]1; target = GUK1 (Homo sapiens, UniProt Q16774, S37P); test = enzyme activity, NADH-coupled; setting = 15.62 µM; measurement = reaction rate; result = -1.01 s⁻¹ and 0.797 s⁻¹ and 0.36 s⁻¹
Structure (SMILES) = COc1cc(-c2cc(C(C)=O)n3ccccc23)c(OC)cc1Cn1ccnc1; target = KAT2A (Homo sapiens, UniProt Q92830); measurement = ΔTm; result = 2.4 °C
Structure (SMILES) = COc1ccc(Cc2nnc(NS(=O)(=O)c3ccc(C(C)(C)C)cc3)s2)cc1; target = Glutathione hydrolase 1 proenzyme, without transmembrane domain (Homo sapiens, UniProt P19440); test = GSH hydrolysis; setting = 37 °C, no inhibition up to 250 µM, with: GSH 5-20 µM; measurement = Kii; result = > 250 µM
Structure (SMILES) = Nc1ncnc2c1ncn2[C@@H]1O[C@H](COP(=O)(O)OP(=O)(O)O)[C@@H](O)[C@H]1O; target = T1, ssDNA, aptamer; test = ITC; measurement = Kd; result = 53.4 µM
Structure (SMILES) = Cc1ncsc1-c1ccc([C@H](C)NC(=O)[C@@H]2C[C@@H](O)CN2C(=O)[C@@H](NC(=O)COCCOCCOCCOCCOCC(=O)N2CC(Nc3cc(C(=O)NC[C@H](O)CN4CCc5ccccc5C4)ncn3)C2)C(C)(C)C)cc1; target = PRMT5 (Homo sapiens, UniProt O14744); test = degrader, Western blot; test system = MDA-MB-468; setting = 2 µM; measurement = time to degradation; result = 12 h

Repeated from above:
Structure (SMILES) = CC(=O)N[C@@H]1[C@@H](O[C@H]2O[C@H](CO)[C@H](O)[C@H](O)[C@H]2O)[C@@H](O)[C@@H](CO)O[C@H]1O; target = Frizzled-8 (Xenopus laevis, UniProt Q91719); test = binding, biolayer interferometry; setting = 25 °C, with: immobilized biotinylated carbohydrate; measurement = association rate constant; result = 3960 M⁻¹ s⁻¹
Structure (SMILES) = O=C(C=Cc1ccccc1)Nc1cccc(-c2ccnc(N3CCC(CO)CC3)c2)c1; target = Nuclear receptor subfamily 4 group A member 1 (NR4A1, Homo sapiens, UniProt P22736); test = SPR; setting = 10.0 µM; measurement = binding response; result = 93.8 RU
